Results from different studies.
Lines come from different studies, so protocols differ. ± gives the spread as reported.

Under “treatment-related adverse event incidence”, `COc1ccc(-c2c(-c3ccc(C#N)c(F)c3)nc(N3CCC(N)CC3)n(C)c2=O)cc1F` is recorded as 0% (item: Diarrhea; relapsed/refractory marginal zone lymphoma patients; oral, 60 mg, grade 3 to 4, dose expansion).
For `COc1cc2c(Oc3ccc4[nH]c(C)cc4c3F)ccnc2cc1OCC1(N)CC1`, “patients with grade 3 ALP elevation” read 0% (paediatric refractory sarcoma patients; dose not given).
Under “mean residence time at steady state”, `COc1cc(C(=O)NC2CCN(C)CC2)c(F)cc1Nc1ncc(C(F)(F)F)c(Oc2cccc3c2C(=O)N(C)C3)n1` is recorded as 27.9 h (human patients, plasma; oral, 50 mg once daily repeated, geometric mean).
For `CC(=O)c1c(C)c2cnc(Nc3ccc(C4CCN(CCS(C)(=O)=O)CC4)cn3)nc2n(C2CCCC2)c1=O`, the Cmax was 79.9 ng/mL (human, dose-escalation trial, plasma; oral, 25 mg twice daily, day 21, multiple doses).
With `C[C@H]1CN(C(=O)CC#N)[C@]12CCN(c1ncnc3[nH]ccc13)C2` the NOAEL was 0.6 mg/kg (dog male and female; oral, 9 months, repeated-dose toxicity study).
`CC(C)C(=O)OC[C@H]1O[C@@H](n2ccc(NO)nc2=O)[C@H](O)[C@@H]1O` gave a freeze-thaw stability of 100.1 ± 0.78% (rat maternal blood dialysate; 5 ng/mL, low concentration, three cycles, added: NHC 25 ng/mL).
`O=[N+]([O-])NC1=NCCN1Cc1ccc(Cl)nc1` — result for “dose fraction in permeate”: 61% (ultrafiltration; cow milk whey; 20 nM nominal in whole milk).
`C=CC(=O)N1CC[C@H](n2nc(C#Cc3cc(OC)cc(OC)c3)c3c(N)ncnc32)C1`: “adverse drug reaction incidence” 8.3% (patients with advanced solid tumours; oral, dose not given, Stomatitis, any grade, QD, added: lanthanum carbonate hydrate).
Under “patients with Diarrhea TEAE”, `C[C@]1(O)C[C@@](N)(c2ccc(-c3nc4n(c3-c3ccccc3)COc3ccncc3-4)cc2)C1` is recorded as 0% (human, advanced or metastatic solid tumours; 24 mg intermittent, phase I dose escalation).
For `CC[C@H](C)[C@H](NC(=O)[C@H](C)NC(=O)[C@H](CCCCN)NC(=O)[C@H](CC(C)C)NC(=O)[C@H](C)NC(=O)[C@@H](NC(=O)[C@H](Cc1c[nH]cn1)NC(=O)[C@H](CC(C)C)NC(=O)[C@@H](NC(=O)[C@@H](NC(=O)[C@H](CCCCN)NC(=O)[C@H](C)NC(=O)[C@H](C)NC(=O)[C@H](CO)NC(=O)[C@H](CCCCN)NC(=O)[C@H](Cc1ccccc1)NC(=O)[C@@H](NC(=O)[C@H](CCCCN)NC(=O)[C@H](CC(C)C)NC(=O)[C@H](Cc1ccccc1)NC(=O)[C@H](CO)NC(=O)[C@H](CCCCN)NC(=O)[C@H](Cc1c[nH]c2ccccc12)NC(=O)[C@H](CCCCN)NC(C)=O)[C@@H](C)O)[C@@H](C)O)C(C)C)[C@@H](C)O)C(=O)N[C@@H](CO)C(=O)N[C@@H](CO)C(N)=O`, the AUC(0-t) was 12300 ± 1920 ng·h/mL (minipigs, both sexes, plasma; intravenous, 20 mg per animal).
With `C=CC[N+]1([C@H]2C[C@H]3[C@@H]4CC[C@H]5C[C@H](O)[C@@H](N6CCOCC6)C[C@]5(C)[C@H]4CC[C@]3(C)[C@H]2OC(C)=O)CCCC1` the Cmax was 285 ng/mL (Sprague Dawley rat, plasma; intravenous, dose not given, added: sugammadex 5 mg/kg IV).
`COc1ncnn2ccc(-c3cnc4nc(C)n(Cc5nnc([C@@H](C)F)o5)c4c3)c12` — result for “patients with hyponatremia”: 0% (human; oral, dose not given, grade 5).
For `Cc1ccc(S(=O)(=O)n2c(N)nc3ccccc32)cc1`, the plasma concentration was 540 ± 40 nM (mouse, plasma; intraperitoneal, 30 mg/kg, 120 min).

A few entries again:
`COc1ncnn2ccc(-c3cnc4nc(C)n(Cc5nnc([C@@H](C)F)o5)c4c3)c12` — result for “patients with hyponatremia”: 0% (human; oral, dose not given, grade 5).
